# Experimental data from different studies.
# A part holds a random share of what one study measured.

# Sample 1
# Target: Histone acetyltransferase KAT6A, winged helix 2, GST fusion (KAT6A, Homo sapiens, UniProt Q92794, residues 85-181)
# Method: protein binding microarray
# Form: double-stranded DNA, one strand shown
# Medium: in vitro
# Tested at: not given
# Setting: 8-mer, flanks averaged, mean of 2 arrays, mostly near background
# Relative to: not given
# Reading: higher = stronger binding
# Residues (chain): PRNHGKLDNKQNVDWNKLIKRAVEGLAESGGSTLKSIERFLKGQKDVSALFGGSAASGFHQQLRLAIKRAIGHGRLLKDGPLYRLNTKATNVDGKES
Oligonucleotide,E-score
AATGATCA,-0.0439
CAAATAGC,-0.044
ACGCTGCG,0.101
CGCGCAAA,0.101
TATTGCCA,-0.0997
CATACGGA,0.0576

# Sample 2
# Target: Prothrombin, mature alpha-thrombin (F2, Homo sapiens, UniProt P00734)
# Method: aptamer microarray, sandwich
# Form: DNA with 2'F-ANA
# Medium: in vitro
# Tested at: 200 nM
# Setting: whole 15-mer aptamer, many near background
# Added: Cy3 exosite-II aptamer, 400 nM
# Reading: higher = stronger binding
# Oligonucleotide: GGTTGGTGTGGTTGG
Modification,mean fluorescence intensity
2'F-ANA at 1 3 4 5 6 7 8 13 14,47.2 a.u.
2'F-ANA at 1 5 6 10 11 12,46.9 a.u.
2'F-ANA at 1 2 4 5 6 11 14 15,46.5 a.u.
2'F-ANA at 6 8 10 13 14 15,89.7 a.u.
2'F-ANA at 1 2 3 4 5 8 11 13 14 15,47.7 a.u.

# Other studies, line by line
# PHO4 full length, GST-tagged: Phosphate system positive regulatory protein PHO4, full length, GST-tagged (PHO4, Saccharomyces cerevisiae, UniProt P07270, residues 1-312)
# Sequence of UniProt P07270 (whole entry, looked up): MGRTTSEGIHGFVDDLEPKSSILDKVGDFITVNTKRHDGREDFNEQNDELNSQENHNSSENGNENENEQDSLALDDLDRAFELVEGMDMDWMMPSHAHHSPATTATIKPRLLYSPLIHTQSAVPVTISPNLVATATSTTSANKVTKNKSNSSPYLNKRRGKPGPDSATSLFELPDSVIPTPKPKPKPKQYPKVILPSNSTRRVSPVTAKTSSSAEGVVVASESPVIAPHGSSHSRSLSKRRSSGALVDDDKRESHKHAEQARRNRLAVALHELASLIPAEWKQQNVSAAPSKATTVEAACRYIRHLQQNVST
# CBF1 full length, N-terminal tag: Centromere-binding protein 1, full length, N-terminal tag (CBF1, Saccharomyces cerevisiae, UniProt P17106, residues 1-351)
# Sequence of UniProt P17106 (whole entry, looked up): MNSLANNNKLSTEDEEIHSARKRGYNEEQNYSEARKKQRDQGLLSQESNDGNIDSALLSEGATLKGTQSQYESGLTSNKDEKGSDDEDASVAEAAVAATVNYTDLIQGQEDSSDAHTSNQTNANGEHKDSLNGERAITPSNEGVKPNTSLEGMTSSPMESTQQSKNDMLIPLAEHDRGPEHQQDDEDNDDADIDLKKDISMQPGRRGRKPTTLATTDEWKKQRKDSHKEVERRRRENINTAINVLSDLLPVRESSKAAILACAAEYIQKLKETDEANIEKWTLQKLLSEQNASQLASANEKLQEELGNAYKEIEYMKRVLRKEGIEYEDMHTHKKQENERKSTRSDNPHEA
Substance,target,assay,system,conditions,how to read,measurement,value
CTTTCCCGATCTTGATCCGTGGGTGTAGCACATTTGGTCTTGATTCGCTTGACGCTGCTG,"PHO4 full length, GST-tagged",competition protein-binding microarray,"double-stranded DNA, one strand shown, in vitro","2 µM, whole 60-bp probe, lowest competitor level, added: Cbf1 competitor, 0.05 µM",higher = stronger binding,fluorescence intensity,5610 a.u.
"PhoQ, residues 284 288 289 292 302 303 GNNTDL","PhoP, residues 12 14 15 18 19 LHTVM (Escherichia coli, UniProt P23836)","Sort-seq, item: YFP reporter",E. coli,"PhoQ-PhoP variant library, added: 10 µM Mg2+","relative to: high Mg2+ state, higher = stronger signaling",fold induction,1.17
GAAAGTACCGGCGGTCACATGGTCTGCGAGATTTAGGTCTTGATTCGCTTGACGCTGCTG,"CBF1 full length, N-terminal tag",protein-binding microarray,"double-stranded DNA, one strand shown, in vitro","0.8 µM, whole 60-bp probe, no competitor",higher = stronger binding,fluorescence intensity,6120 a.u.
AAATTACTAAGTTGCGTCGTGGGTGACGCCGTATGAGTCTTGATTCGCTTGACGCTGCTG,"PHO4 full length, GST-tagged",competition protein-binding microarray,"double-stranded DNA, one strand shown, in vitro","2 µM, whole 60-bp probe, lowest competitor level, added: Cbf1 competitor, 0.05 µM",higher = stronger binding,fluorescence intensity,8220 a.u.
GAAAGATGGGACCATCAGATGTGGAACGAAAATTAGGTCTTGATTCGCTTGACGCTGCTG,"CBF1 full length, N-terminal tag",protein-binding microarray,"double-stranded DNA, one strand shown, in vitro","0.8 µM, whole 60-bp probe, no competitor",higher = stronger binding,fluorescence intensity,509 a.u.
